Measured values gathered from unrelated publications.
Each line is one published result; not all experiments were run side by side. “And” joins repeats or separate records; there may be more than shown. ± gives the spread as reported.
IGHG1: Immunoglobulin heavy constant gamma 1 (IGHG1, Homo sapiens, UniProt P01857)
Chain of UniProt P05181 (whole entry, looked up): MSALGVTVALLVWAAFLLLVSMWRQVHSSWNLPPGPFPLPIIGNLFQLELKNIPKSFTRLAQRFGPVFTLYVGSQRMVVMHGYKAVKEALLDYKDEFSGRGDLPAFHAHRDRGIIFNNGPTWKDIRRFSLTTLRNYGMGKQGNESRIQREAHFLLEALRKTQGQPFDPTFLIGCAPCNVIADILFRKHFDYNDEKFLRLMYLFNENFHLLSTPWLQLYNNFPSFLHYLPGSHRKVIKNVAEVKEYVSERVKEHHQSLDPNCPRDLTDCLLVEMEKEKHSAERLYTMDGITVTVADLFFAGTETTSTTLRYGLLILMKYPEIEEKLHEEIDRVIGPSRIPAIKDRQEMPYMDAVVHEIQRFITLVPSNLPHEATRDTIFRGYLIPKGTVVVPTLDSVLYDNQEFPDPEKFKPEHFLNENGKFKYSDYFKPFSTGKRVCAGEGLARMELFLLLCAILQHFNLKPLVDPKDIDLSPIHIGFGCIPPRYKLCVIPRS
Chain of UniProt P05177 (whole entry, looked up): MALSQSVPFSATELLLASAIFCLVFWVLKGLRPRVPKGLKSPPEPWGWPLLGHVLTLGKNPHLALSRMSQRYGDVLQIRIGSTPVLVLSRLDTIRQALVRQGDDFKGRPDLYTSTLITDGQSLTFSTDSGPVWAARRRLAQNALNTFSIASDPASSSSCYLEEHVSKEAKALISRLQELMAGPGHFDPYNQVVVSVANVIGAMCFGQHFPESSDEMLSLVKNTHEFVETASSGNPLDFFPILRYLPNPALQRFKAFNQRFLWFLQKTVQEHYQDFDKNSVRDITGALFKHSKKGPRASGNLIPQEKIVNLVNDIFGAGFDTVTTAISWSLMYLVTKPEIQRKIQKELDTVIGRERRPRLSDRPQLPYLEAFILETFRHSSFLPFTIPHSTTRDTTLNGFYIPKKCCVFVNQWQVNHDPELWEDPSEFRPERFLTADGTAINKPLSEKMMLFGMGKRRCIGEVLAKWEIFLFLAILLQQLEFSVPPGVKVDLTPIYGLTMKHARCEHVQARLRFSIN
Chain of UniProt P31652 (whole entry, looked up): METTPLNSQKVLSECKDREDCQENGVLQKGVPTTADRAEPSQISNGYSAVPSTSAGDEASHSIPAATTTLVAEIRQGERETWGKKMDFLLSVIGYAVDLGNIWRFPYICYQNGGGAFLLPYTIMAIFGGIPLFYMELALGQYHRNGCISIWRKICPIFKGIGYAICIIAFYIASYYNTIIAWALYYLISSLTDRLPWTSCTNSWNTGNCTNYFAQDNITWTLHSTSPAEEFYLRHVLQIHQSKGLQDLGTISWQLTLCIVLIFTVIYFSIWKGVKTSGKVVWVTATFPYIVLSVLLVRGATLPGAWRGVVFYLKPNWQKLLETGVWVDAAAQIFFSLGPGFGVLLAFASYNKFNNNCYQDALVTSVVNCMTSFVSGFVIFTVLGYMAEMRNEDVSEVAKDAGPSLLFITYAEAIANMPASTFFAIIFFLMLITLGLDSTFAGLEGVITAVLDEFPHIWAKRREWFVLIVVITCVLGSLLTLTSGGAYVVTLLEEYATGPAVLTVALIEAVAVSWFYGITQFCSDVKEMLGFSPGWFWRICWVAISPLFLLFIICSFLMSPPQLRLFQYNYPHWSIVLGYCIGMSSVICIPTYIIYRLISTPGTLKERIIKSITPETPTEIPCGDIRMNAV

The EC50 of `C[C@H](N)C(=O)c1ccccc1` is reported as 4.74 µM (Slc6a4 (Rattus norvegicus, UniProt P31652); serotonin release, releaser; rat brain synaptosomes; added: [3H]5-HT).
For `CC(=O)NCC(=O)N1CCC[C@H]1C(=O)N[C@@H](CC(=O)O)C(=O)N[C@H]1CSSC[C@@H](C(=O)N[C@H](C(N)=O)[C@@H](C)O)NC(=O)[C@H](Cc2c[nH]c3ccccc23)NC(=O)[C@H](C(C)C)NC(=O)[C@H](CC(C)C)NC(=O)[C@H](CCC(=O)O)NC(=O)CNC(=O)[C@H](CCCCN)NC(=O)[C@H](Cc2c[nH]cn2)NC(=O)[C@H](Cc2ccc(O)cc2)NC(=O)[C@H](C)NC1=O`, the Kd was 1640 ± 10 nM (IGHG1; binding, SPR; pH 7.4, added: immobilized Herceptin).
For `COc1ccc(C[C@H]2NC[C@H](O)[C@H]2OC(C)=O)cc1`, the CC50 was 58.5 µM (LMH chicken hepatoma cells; cytotoxicity).
The recovery of `CN1C(=O)N[C@H]2[C@@H]3NC(=O)c4ccc(Br)n4[C@@H]3C[C@]21O` is reported as 65 to 90% (LC-MS; human AB serum; 50 µM, 24 h, 37 °C).
`CC[C@H](C)[C@H](NC(=O)[C@H](CCCCN)NC(=O)[C@H](CCC(N)=O)NC(=O)[C@H](Cc1ccccc1)NC(=O)[C@@H](NC(=O)[C@H](CCCCN)NC(=O)[C@H](CCCCN)NC(=O)[C@H](CC(C)C)NC(=O)[C@H](C)NC(=O)[C@H](CC(N)=O)NC(=O)[C@@H](N)CC(C)C)C(C)C)C(=O)N[C@@H](Cc1c[nH]cn1)C(=O)N[C@@H](CCC(=O)O)C(=O)N[C@@H](C)C(N)=O` has an HC10 of 256 µM (mouse erythrocytes).
The inhibition of `CCO` is reported as 40% and > 80% (Cytochrome P450 2E1 (CYP2E1, Homo sapiens, UniProt P05181); concentration not given).
The remaining activity of `O=c1cc(-c2ccccc2)oc2c1ccc1ccccc12` is reported as 25.2% (Cytochrome P450 1A2 (CYP1A2, Homo sapiens, UniProt P05177); enzyme activity, inhibitor; pooled human liver microsomes; concentration not given).
For `CCCC[C@H]1NC(=O)[C@H](Cc2ccc(F)cc2)NC(=O)[C@H](CCCNC(=N)N)NC(=O)[C@@H](Cc2ccc3ccccc3c2)NC(=O)[C@H](CCCNC(=N)N)NC(=O)[C@H](CCCNC(=N)N)NC(=O)[C@H](CCC(N)=O)NC(=O)C[C@@H](CCc2ccccc2)NC(=O)[C@@H]2CCCCN2C(=O)C(=O)C(C)(C)COC1=O`, binding read “no binding” (PTP1B; fluorescence polarization; up to 20 µM).
`COc1cc2c(c(OC)c1OC)-c1ccc(OC)c(=O)cc1[C@@H](NC(C)=O)CC2` gave a chromatographic logD of 2.17 (pH 7.4).
For `CC(=O)NCC(=O)N1CCC[C@H]1C(=O)N[C@@H](CC(=O)O)C(=O)N[C@H]1CSSC[C@@H](C(=O)N[C@@H](C)C(=O)N[C@@H](Cc2ccccc2)C(=O)N[C@@H](Cc2c[nH]cn2)C(N)=O)NC(=O)[C@H](Cc2c[nH]c3ccccc23)NC(=O)[C@H](C(C)C)NC(=O)[C@H](CC(C)C)NC(=O)[C@H](CCC(=O)O)NC(=O)CNC(=O)[C@H](CCCCN)NC(=O)[C@H](Cc2c[nH]cn2)NC(=O)[C@H](Cc2ccc(O)cc2)NC(=O)[C@H](C)NC1=O`, the Kd was 622 ± 5 nM (IGHG1; binding, SPR; pH 7.4, added: immobilized Herceptin).
With `CNCCCN1c2ccccc2CCc2ccccc21` the Kd was 149000 nM (alpha1-acid glycoprotein (human); binding, isothermal titration calorimetry; pH 7.4, 30 °C).
With `CC(C)C[C@H](NC(=O)[C@@H](NC(=O)[C@H](C)NC(=O)[C@@H](NC(=O)[C@@H](NC(=O)[C@H](CC(N)=O)NC(=O)[C@H](Cc1ccc(O)cc1)NC(=O)[C@H](CC(C)C)NC(=O)[C@@H](N)CO)[C@@H](C)O)C(C)C)[C@@H](C)O)C(=O)O` the half-life was 33.9 min (RP-HPLC; human PBMC cytosol; 37 °C, DMSO control condition).

Some of these lines once more:
With `CNCCCN1c2ccccc2CCc2ccccc21` the Kd was 149000 nM (alpha1-acid glycoprotein (human); binding, isothermal titration calorimetry; pH 7.4, 30 °C).
With `CC(C)C[C@H](NC(=O)[C@@H](NC(=O)[C@H](C)NC(=O)[C@@H](NC(=O)[C@@H](NC(=O)[C@H](CC(N)=O)NC(=O)[C@H](Cc1ccc(O)cc1)NC(=O)[C@H](CC(C)C)NC(=O)[C@@H](N)CO)[C@@H](C)O)C(C)C)[C@@H](C)O)C(=O)O` the half-life was 33.9 min (RP-HPLC; human PBMC cytosol; 37 °C, DMSO control condition).
